Experimental data collected from several papers.
Each numbered part is a random draw from the data of one study; scales do not carry over between parts. Positions count from the first letter of the parent shown.

Set 1 — technique: protein-binding microarray; form: double-stranded DNA, one strand shown; matrix: in vitro; concentration: 0.8 µM; setting: whole 60-bp probe, no competitor; direction: higher = stronger binding
Target: Centromere-binding protein 1, full length, N-terminal tag (CBF1, Saccharomyces cerevisiae, UniProt P17106, residues 1-351)
UniProt P17106, sequence (whole entry, looked up): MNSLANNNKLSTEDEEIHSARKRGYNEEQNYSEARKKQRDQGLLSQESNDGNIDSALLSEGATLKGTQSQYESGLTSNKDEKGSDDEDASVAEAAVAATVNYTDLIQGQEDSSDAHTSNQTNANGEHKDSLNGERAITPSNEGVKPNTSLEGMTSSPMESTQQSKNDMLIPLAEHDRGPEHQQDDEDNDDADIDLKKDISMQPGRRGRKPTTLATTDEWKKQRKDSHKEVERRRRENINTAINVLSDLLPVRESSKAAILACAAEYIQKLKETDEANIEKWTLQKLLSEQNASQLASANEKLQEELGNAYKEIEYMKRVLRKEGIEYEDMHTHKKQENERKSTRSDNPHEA
`GAATAAAGCAAATCTCACATGAAAACGCTGAAATAGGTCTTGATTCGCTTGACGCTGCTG` has a fluorescence intensity of 554 a.u.
`CTAATATATACACACCACACCACACCCACACACTTCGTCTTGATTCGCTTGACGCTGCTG` gave a fluorescence intensity of 633 a.u.
`CTATTTGTGGCCGATCACGCTAAAGATTAGGCATTCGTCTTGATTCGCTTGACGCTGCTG` gave a fluorescence intensity of 649 a.u.
For `GAATTATGAGACAGCCACGCAACACAAAAAAGGTAGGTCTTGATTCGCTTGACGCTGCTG`, the fluorescence intensity was 527 a.u.
The fluorescence intensity of `GAAGTCACCGAATTTCTCGTGGAATGATTCTTTTAGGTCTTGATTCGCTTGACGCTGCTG` is reported as 515 a.u.
`GAAAAATGACATAGTCATCTGATATTTCTACTCTAGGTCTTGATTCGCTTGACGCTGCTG` has a fluorescence intensity of 671 a.u.
The fluorescence intensity of `GAACAAACGGACTTTTACGTCACACGAAAAGTATAGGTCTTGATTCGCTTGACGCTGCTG` is reported as 565 a.u.
The fluorescence intensity of `CTATTCCAGCCTTTCCACGTTTTTGTTATCTAATTCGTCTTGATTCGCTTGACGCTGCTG` is reported as 564 a.u.
For `CTAAATGGTTTTTATCACGTCCTAACGACATCATTCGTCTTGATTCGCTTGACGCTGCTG`, the fluorescence intensity was 628 a.u.
The fluorescence intensity of `GAAAGTCTTCTGACTCACCTGTTCTGCTTTACCTAGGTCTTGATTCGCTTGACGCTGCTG` is reported as 601 a.u.
The fluorescence intensity of `GAAAAAATCTTCAGTCACGTGGCGCTCCGTCTTTAGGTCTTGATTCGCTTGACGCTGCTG` is reported as 12500 a.u.
With `GAACGGGCCCCACGGGAGGTGATGGTGCCGCTTTAGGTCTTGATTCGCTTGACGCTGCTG` the fluorescence intensity was 499 a.u.
For `CTAAATCTCTGAAATCATATGAAGATCTTGCTGTTCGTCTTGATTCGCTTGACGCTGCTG`, the fluorescence intensity was 500 a.u.
`GAAATAAAAGCAACCCACGTAACAAATTGCGAATAGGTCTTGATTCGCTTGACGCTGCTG` gave a fluorescence intensity of 516 a.u.
The fluorescence intensity of `CTATTTCTTTGGGTTTACGTGGGTTCAGCACTTTTCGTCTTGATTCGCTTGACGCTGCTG` is reported as 571 a.u.
For `GAAGGTAAGACTAGTAACGTCACATCGAAGTCATAGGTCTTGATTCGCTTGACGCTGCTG`, the fluorescence intensity was 520 a.u.
`CTAGCATCTAGAACAGCTGAGATGAAAGAGGATTTCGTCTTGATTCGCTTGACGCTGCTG` gave a fluorescence intensity of 546 a.u.
`CTATTGAATTTTCGTCTCCTGTTATACGAATATTTCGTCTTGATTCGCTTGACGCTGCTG` has a fluorescence intensity of 522 a.u.
`CTATAATAAATACATGATGCTAGGTACACAGAATTCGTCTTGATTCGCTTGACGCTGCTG` has a fluorescence intensity of 537 a.u.
`GAATAAGTAATCATACACGTGAAAAGCACGTGATAGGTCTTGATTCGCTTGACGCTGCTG` gave a fluorescence intensity of 14300 a.u.
With `GAAATGCTGCACAAAAACGTGCCAGCAATGCAATAGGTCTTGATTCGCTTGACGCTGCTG` the fluorescence intensity was 778 a.u.
`GAAACCAATGTCCTCCACGGGATCGCCACTTTTTAGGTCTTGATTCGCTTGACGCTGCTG` gave a fluorescence intensity of 601 a.u.
For `GAATAATATTGGCATGATGCGAAATTGGACGTATAGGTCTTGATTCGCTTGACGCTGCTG`, the fluorescence intensity was 607 a.u.
With `CCTAACTACTATAATCACGAACCATAGCTTCGTACAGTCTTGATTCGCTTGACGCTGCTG` the fluorescence intensity was 589 a.u.
For `CTAGTGAGGTTTTATCACGGGGCCACCGTTCTCTTCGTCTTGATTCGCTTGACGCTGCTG`, the fluorescence intensity was 1380 a.u.

Set 2 — target: CCNA2, cyclin fold, Cln2 fusion (human); technique: yeast growth competition, sequencing; matrix: yeast; setting: strong parent motif; baseline: not given; direction: higher = stronger binding
Parent: PKN2 docking peptide (human); VSAVQKLDFSDTM; partner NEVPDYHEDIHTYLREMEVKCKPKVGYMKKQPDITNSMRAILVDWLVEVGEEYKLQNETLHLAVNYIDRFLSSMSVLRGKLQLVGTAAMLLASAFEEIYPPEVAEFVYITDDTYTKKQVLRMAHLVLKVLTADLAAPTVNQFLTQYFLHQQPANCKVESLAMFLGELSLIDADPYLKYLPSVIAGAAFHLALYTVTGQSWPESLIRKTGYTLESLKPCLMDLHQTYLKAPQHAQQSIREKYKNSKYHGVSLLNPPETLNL
Under “normalised enrichment score”, `M13V` is recorded as 1.95.
Under “normalised enrichment score”, `L7E` is recorded as -0.385.
`V1A`: “normalised enrichment score” 1.57.
`A3K` — result for “normalised enrichment score”: 0.187.
`A3C`: “normalised enrichment score” 2.82.
For `A3S`, “normalised enrichment score” read 0.575.
For `V1W`, “normalised enrichment score” read 2.05.
`A3L` — result for “normalised enrichment score”: 0.385.
For `S10H`, “normalised enrichment score” read 0.841.
For `K6M`, “normalised enrichment score” read 0.874.
Under “normalised enrichment score”, `L7Q` is recorded as -0.435.
`V4H`: “normalised enrichment score” 1.14.
`M13Q` — result for “normalised enrichment score”: 1.99.
For `S2N`, “normalised enrichment score” read 2.29.
`K6C`: “normalised enrichment score” 1.4.
`L7P` — result for “normalised enrichment score”: -0.18.
`T12N`: “normalised enrichment score” 2.12.
`D11I`: “normalised enrichment score” 0.81.
`V4D`: “normalised enrichment score” -0.182.

Set 3 — technique: protein-binding microarray; form: double-stranded DNA, one strand shown; matrix: in vitro; concentration: 2540 nM top; setting: 60-bp whole probe; added: salmon DNA 0.4 mg/ml; baseline: random background probes; direction: higher = stronger binding; shared flanks, not repeated: GCCTAGCAC … GTCTTGATTCGCTTGACGCTGCTG
Target: Interferon regulatory factor 3, full length, phosphomimetic (IRF3, Homo sapiens, UniProt Q14653, residues 1-427, S386D/S396D/S398D/S402D/T404D/S405D)
Target sequence (chain): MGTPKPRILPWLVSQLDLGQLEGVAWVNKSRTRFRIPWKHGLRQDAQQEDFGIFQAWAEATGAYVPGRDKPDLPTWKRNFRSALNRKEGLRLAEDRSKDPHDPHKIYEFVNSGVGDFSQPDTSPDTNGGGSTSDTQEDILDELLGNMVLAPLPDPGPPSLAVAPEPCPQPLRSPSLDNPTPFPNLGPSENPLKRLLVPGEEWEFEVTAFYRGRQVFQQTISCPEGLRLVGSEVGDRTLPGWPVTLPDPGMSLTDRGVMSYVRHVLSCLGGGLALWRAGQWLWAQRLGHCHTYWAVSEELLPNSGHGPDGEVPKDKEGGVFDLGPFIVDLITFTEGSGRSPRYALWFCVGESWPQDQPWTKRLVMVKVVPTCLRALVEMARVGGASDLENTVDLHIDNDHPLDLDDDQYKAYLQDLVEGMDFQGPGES
`TTTGGTTTGTACACCGCCTTGTGCTAG` — result for “fitted relative affinity”: -0.098 z-score.
`GACGATTTCAGTTCCGAGCCGTGCTAG`: “fitted relative affinity” 2.77 z-score.
`TTAGGTATCGACTATCGCTTAGTGCTA` — result for “fitted relative affinity”: 0.29 z-score.
For `TTAGGTAGCGACACTGGGTTAGTGCTA`, “fitted relative affinity” read -0.631 z-score.
`GAGGGTATCGGTATCGGGACGTGCTAG` — result for “fitted relative affinity”: 3.29 z-score.
For `GAAGATTTCAGACTGGAGACGTGCTAG`, “fitted relative affinity” read 0.391 z-score.
For `GACGGTTTCGACGCTGGGGACGTGCTA`, “fitted relative affinity” read 2 z-score.
For `GACGATCGCAGTATCGAGACGTGCTAG`, “fitted relative affinity” read 0.377 z-score.
Under “fitted relative affinity”, `CCTAATCTCAGCCTCCGTCAGTGCTAG` is recorded as 0.856 z-score.
`TTAGGTATCGGATTGGGTTAGTGCTAG` — result for “fitted relative affinity”: 2.68 z-score.
`ATATGTAAGATATCCATATGGTGCTAG` — result for “fitted relative affinity”: 0.936 z-score.
`GACGAAATGAGTCTCGAGACGTGCTAG`: “fitted relative affinity” -0.146 z-score.
`TTAGGTATCGACACTGGATTAGTGCTA` — result for “fitted relative affinity”: 0.289 z-score.
Under “fitted relative affinity”, `GACGGTTCCGGTTTCGGGAAGTGCTAG` is recorded as 5.94 z-score.
For `TCATACTTGTGTCTAGAACTGTGCTAG`, “fitted relative affinity” read 0.423 z-score.
Under “fitted relative affinity”, `GACGAACCGAGTTTCGAGACGTGCTAG` is recorded as 1.47 z-score.

Set 4 — technique: RNA Bind-n-Seq; form: RNA; matrix: in vitro; concentration: 365 nM; baseline: no-protein control; direction: higher = stronger binding
Target: RNA binding protein fox-1 homolog 2, RRM domain, GST-SBP tag (RBFOX2, Homo sapiens, UniProt O43251-10, residues 100-194)
Setting: natural RNA segment, single round, ends assumed
Target sequence (chain): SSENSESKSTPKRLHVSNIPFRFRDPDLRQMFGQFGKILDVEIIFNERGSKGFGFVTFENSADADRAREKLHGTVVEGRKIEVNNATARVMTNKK
`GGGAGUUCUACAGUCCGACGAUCCCGUGGGGAGAGGUGAGUGGCAUUACAAGAAAUUUAGGCUUUAUUCAGAAGGCAACAGGGAGUCCCUAAGAAUGUUUUUCAAAAAGGGACAUUAAGGCGAUUGGAGUUAUUGGAAUUCUCGGGUGCCAA`: “RBNS enrichment (R)” 0.902.
Under “RBNS enrichment (R)”, `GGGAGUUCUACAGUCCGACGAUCAAGUAAAAGUGAAGUUAUUUUGAAGAAAACAACUCAUUUCCAAGGACGACAUGACGACGUGCCUUUUCAUUUUACAUCCUCUGUCCCCUAGGGUAAGUUUUUCAGCAUUAUGGAAUUCUCGGGUGCCAA` is recorded as 0.311.
Under “RBNS enrichment (R)”, `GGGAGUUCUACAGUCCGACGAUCAGGGACCCUCUGUGCCUUCUUCUUUGUUUUGUGAUAAACAUAACUUGCCAACAGUCUCUAUGCUUAUUUACAUCUUCUACUGUUCAAACUAAGAGAUUUUUAAAUUCUGAUGGAAUUCUCGGGUGCCAA` is recorded as 0.505.
`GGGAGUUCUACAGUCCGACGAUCGGGAAGAAAUUUAAAUGGGGGAAAAUAAGCCAUCUUUUUAAACAAAAAUUAUUUUACCUACAGAGAGGUUGUAGUUUUGAGCACAUGUUAGUUCCUCCCUCUUCCCGAUGUGGAAUUCUCGGGUGCCAA` — result for “RBNS enrichment (R)”: 0.535.
`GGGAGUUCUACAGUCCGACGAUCUGACAGAACAGCACAUCCUGGCCAGCACCCCUGGCUGGAGUGGGUUAAAGGGACGAGUCUGCCUUCCUGGCUGUGACACGGGACCCCUUUUCUACAGACCUCAUCACUGGUGGAAUUCUCGGGUGCCAA` — result for “RBNS enrichment (R)”: 0.199.
`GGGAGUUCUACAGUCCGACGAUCAGCAGUGGCUCAGCUAAGUGCUCCCCCUAGCUCCCAUCUCAGGAGACCAAAUCUCACAGAAAAAUAGGCACUUUGGGCCAAAAGCUCUAAUGGAACAUUUUUAGUGGUGAUGGAAUUCUCGGGUGCCAA` — result for “RBNS enrichment (R)”: 0.173.
For `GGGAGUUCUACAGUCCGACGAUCCAUGACCUUGGAAGCUUUCUUCUCUCCAGAACAUUUGGAAAGGGGUAGAAGACCAUAUGGCUUACUUGUUCCAUAGCUCCAAGUGAGUCUGUAAUAAUGUUUGUGAAUCUUGGAAUUCUCGGGUGCCAA`, “RBNS enrichment (R)” read 0.367.
`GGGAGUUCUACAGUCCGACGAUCAUCAAAUGAGACUAUUUGAGGGGACUAUUUGAAAUGAUUCUGGUAUUUCUUUUGGUAUCUUUCUUCCUGUACAUUGGAGUGAUGGAAAGUCUGGUAUUAAAACCUCUCUUUGGAAUUCUCGGGUGCCAA` — result for “RBNS enrichment (R)”: 0.331.
`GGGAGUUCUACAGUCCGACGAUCAAUUCAAAUUAACUUCCUUUGAGUCUUUGUUAAAAGAGAAAAUAAAAAAAUCUCAAGCAAACUUGGAGUGGCAGUCCAGGGCAUGUCGCAGGAGCAGGAGUGGCUCCAAGUGGAAUUCUCGGGUGCCAA`: “RBNS enrichment (R)” 1.48.

Repeated from above (set 1):
`GAATAAGTAATCATACACGTGAAAAGCACGTGATAGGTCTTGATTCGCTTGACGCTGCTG` gave a fluorescence intensity of 14300 a.u.
With `GAAATGCTGCACAAAAACGTGCCAGCAATGCAATAGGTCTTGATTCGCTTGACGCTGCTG` the fluorescence intensity was 778 a.u.
`GAAACCAATGTCCTCCACGGGATCGCCACTTTTTAGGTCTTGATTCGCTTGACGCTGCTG` gave a fluorescence intensity of 601 a.u.
For `GAATAATATTGGCATGATGCGAAATTGGACGTATAGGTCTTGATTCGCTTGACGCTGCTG`, the fluorescence intensity was 607 a.u.
